{"data": "Measured values of several laboratories", "note": "Numbered parts are unrelated; each lists some results of a single study. Changes are numbered by the printed parent chain."}
{"data": "Series 1", "target": "ABI1, truncated, D143A, DHFR fusion (Arabidopsis thaliana)", "method": "DHFR PCA, deep sequencing", "matrix": "yeast", "setting": "methotrexate growth selection, single substitutions", "with": "(+)-ABA 0 µM", "reference": "wild-type fitted maximum", "direction": "higher = stronger binding", "starting sequence": "PYL1, truncated, DHFR fusion (Arabidopsis thaliana); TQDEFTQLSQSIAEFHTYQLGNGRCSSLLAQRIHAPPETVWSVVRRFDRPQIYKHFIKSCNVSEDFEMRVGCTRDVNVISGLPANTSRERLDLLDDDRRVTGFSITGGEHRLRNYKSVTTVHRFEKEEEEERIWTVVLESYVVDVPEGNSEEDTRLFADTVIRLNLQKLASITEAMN"}
{"Substitution": "V62N", "relative binding score": "-9.39%"}
{"Substitution": "R155A", "relative binding score": "-4.2%"}
{"Substitution": "W41M", "relative binding score": "0.0958%"}
{"Substitution": "D48S", "relative binding score": "-1.82%"}
{"Substitution": "D153E", "relative binding score": "15%"}
{"Substitution": "P146M", "relative binding score": "17.9%"}
{"Substitution": "N149W", "relative binding score": "12%"}
{"Substitution": "E147D", "relative binding score": "38.1%"}
{"Substitution": "W41R", "relative binding score": "5.74%"}
{"Substitution": "Q7T", "relative binding score": "21.2%"}
{"Substitution": "E127L", "relative binding score": "27.3%"}
{"Substitution": "K58F", "relative binding score": "-4.3%"}
{"Substitution": "V44Y", "relative binding score": "0.196%"}
{"data": "Series 2", "target": "Centromere-binding protein 1, full length, His-tagged (CBF1, Saccharomyces cerevisiae, UniProt P17106, residues 1-351)", "method": "competition protein-binding microarray", "molecule type": "double-stranded DNA, one strand shown", "matrix": "in vitro", "tested at": "2 µM", "setting": "whole 60-bp probe, lowest competitor level", "with": "Pho4 competitor, 0.05 µM", "direction": "higher = stronger binding", "sequence of UniProt P17106 (whole entry, looked up)": "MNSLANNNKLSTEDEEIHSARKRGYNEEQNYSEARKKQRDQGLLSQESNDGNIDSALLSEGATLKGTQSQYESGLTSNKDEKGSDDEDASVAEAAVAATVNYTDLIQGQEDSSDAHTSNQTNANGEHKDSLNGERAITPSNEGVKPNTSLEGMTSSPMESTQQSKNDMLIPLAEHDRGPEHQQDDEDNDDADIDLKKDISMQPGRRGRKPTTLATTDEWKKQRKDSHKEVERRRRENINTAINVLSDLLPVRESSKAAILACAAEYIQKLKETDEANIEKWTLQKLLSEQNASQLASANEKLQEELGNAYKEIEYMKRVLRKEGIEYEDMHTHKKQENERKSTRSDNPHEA"}
{"Oligonucleotide": "CATACCCAACCTTTTCACGTGCGCTAAGATATTTGTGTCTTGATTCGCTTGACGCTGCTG", "fluorescence intensity [a.u.]": 934}
{"Oligonucleotide": "AAAGCGGTAATTTGTGCTGTGGGTGCAGATATCTATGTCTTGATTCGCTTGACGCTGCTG", "fluorescence intensity [a.u.]": 75.8}
{"Oligonucleotide": "AAAGCGGTAATTTGCGTCGTGGGTGCAGATATCTATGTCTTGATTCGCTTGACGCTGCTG", "fluorescence intensity [a.u.]": 73.2}
{"Oligonucleotide": "TAACTACCGCCCTAGTTCGTGCTTTCATTTTTTTGTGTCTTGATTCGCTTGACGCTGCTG", "fluorescence intensity [a.u.]": 71}
{"Oligonucleotide": "CTAACGAAGGTTTTTCACGTGTGGTACAAGCCAAGTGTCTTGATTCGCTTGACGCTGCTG", "fluorescence intensity [a.u.]": 567}
{"Oligonucleotide": "TTACTTTCTCTCGCGGTTGTGACGGCCTTCAATGAAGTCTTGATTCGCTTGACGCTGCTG", "fluorescence intensity [a.u.]": 67.9}
{"Oligonucleotide": "CTAACGAAGGTTTGAGCGGTGGGTGACAAGCCAAGTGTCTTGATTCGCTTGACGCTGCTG", "fluorescence intensity [a.u.]": 55.1}
{"Oligonucleotide": "AAGTACAAGTGAGGGATCGTGATTGTAGAGCACTCTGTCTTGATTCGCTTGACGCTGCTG", "fluorescence intensity [a.u.]": 74.9}
{"Oligonucleotide": "CTAACGAAGGTTTGTGTGGTGGGTGACAAGCCAAGTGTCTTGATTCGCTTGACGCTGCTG", "fluorescence intensity [a.u.]": 75.5}
{"Oligonucleotide": "CGTCCTAGTGATTGTACGGTGGGTGCCATGAGGAAGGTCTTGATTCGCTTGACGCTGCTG", "fluorescence intensity [a.u.]": 69.1}
{"Oligonucleotide": "CGGGGTTAAGTTTGCCGCGTGGGTGGCTTGCAGCAGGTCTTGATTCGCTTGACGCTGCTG", "fluorescence intensity [a.u.]": 74.1}
{"Oligonucleotide": "TCTCTGGCCTCCCATCACGTTACTTTATTACCCGGAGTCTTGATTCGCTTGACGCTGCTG", "fluorescence intensity [a.u.]": 563}
{"Oligonucleotide": "GTAAGGGTGAGGGGCCACGTGGCAATCAGAGCAGCTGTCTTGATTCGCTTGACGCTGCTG", "fluorescence intensity [a.u.]": 847}
{"Oligonucleotide": "TCCCTTCAAACTCACCACGTGATGGTCTAGACGTTGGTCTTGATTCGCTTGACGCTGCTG", "fluorescence intensity [a.u.]": 4270}
{"Oligonucleotide": "TTGCAAAAAAAGAATGGCGTGGGTAGGGGCGATTATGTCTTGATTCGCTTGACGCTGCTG", "fluorescence intensity [a.u.]": 66.6}
{"Oligonucleotide": "CCCTGCCGTCCTCAACACGTTGCACCATTTGATGTTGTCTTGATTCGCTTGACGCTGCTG", "fluorescence intensity [a.u.]": 101}
{"Oligonucleotide": "CTCTTCAGAGGTAATTGCATGACAGCAAGATTCGCGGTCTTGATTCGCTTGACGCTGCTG", "fluorescence intensity [a.u.]": 81.7}
{"Oligonucleotide": "CCTGGTAGGTTTGATCTCTTGAGAGTTTGAGCTTTCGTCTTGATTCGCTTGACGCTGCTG", "fluorescence intensity [a.u.]": 52.1}
{"Oligonucleotide": "CTAACGAAGGTTTGCTATGTGGGTGACAAGCCAAGTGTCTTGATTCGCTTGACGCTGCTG", "fluorescence intensity [a.u.]": 76.1}
{"Oligonucleotide": "CGTCCTAGTGATTGTCACAACACTTCCATGAGGAAGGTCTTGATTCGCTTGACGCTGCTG", "fluorescence intensity [a.u.]": 121}
{"Oligonucleotide": "CTAACGAAGGTTTGCCCAGTGGGTGACAAGCCAAGTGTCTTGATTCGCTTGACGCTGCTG", "fluorescence intensity [a.u.]": 56.4}
{"Oligonucleotide": "TTCTTGGAGTCGTAGAACATGACAACCGGGGGAGCAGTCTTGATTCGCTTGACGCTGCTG", "fluorescence intensity [a.u.]": 67.4}
{"Oligonucleotide": "TGCTGTTTCCTTGTCCACGTGAGTCAGTTCTGCAGAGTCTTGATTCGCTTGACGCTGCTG", "fluorescence intensity [a.u.]": 2180}
{"Oligonucleotide": "CCAATCACCGTTCCACGCGTGCAAATCTCTATGACAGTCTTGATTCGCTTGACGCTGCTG", "fluorescence intensity [a.u.]": 97.3}
{"data": "Series 3", "target": "CCNE2, cyclin fold, Cln2 fusion (human)", "method": "yeast growth competition, sequencing", "matrix": "yeast", "setting": "weak parent motif", "reference": "not given", "direction": "higher = stronger binding", "starting sequence": "CUX1 docking peptide (human); SRIRRELFIEEIQ"}
{"Substitution": "Q13A", "normalised enrichment score": -0.0479}
{"Substitution": "R5A", "normalised enrichment score": 0.269}
{"Substitution": "S1A", "normalised enrichment score": 1.05}
{"Substitution": "F8L", "normalised enrichment score": 0.168}
{"Substitution": "E11A", "normalised enrichment score": 0.887}
{"Substitution": "I3A", "normalised enrichment score": 1.08}
{"Substitution": "R2A", "normalised enrichment score": 1.15}
{"data": "Series 4", "target": "RING finger protein unkempt homolog, zinc fingers 1-6, GST-SBP tag (UNK, Homo sapiens, UniProt Q9C0B0, residues 30-357)", "method": "RNA Bind-n-Seq", "molecule type": "RNA", "matrix": "in vitro", "tested at": "not given", "setting": "RNA with constant flanks, ends assumed", "reference": "input RNA pool", "direction": "higher = stronger binding", "sequence of UniProt Q9C0B0 (30-357, looked up)": "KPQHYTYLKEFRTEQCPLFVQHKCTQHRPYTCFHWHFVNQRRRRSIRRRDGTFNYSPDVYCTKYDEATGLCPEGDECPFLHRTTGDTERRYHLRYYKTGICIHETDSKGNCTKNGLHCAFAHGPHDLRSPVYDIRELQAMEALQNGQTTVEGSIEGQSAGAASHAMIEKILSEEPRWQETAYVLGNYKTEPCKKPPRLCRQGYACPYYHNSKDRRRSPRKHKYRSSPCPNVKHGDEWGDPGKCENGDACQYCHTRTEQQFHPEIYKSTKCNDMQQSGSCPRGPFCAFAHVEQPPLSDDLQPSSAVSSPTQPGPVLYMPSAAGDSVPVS"}
{"Oligonucleotide": "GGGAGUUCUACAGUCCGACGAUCGCACCCAGGUCCUAUAGAAUAGCACCCAGGCCAUAUAGGUUAGCACCUAGACCCCUGAUGUCCGCAUCUAGACGUUCUAUGAUGAUGUCCUAUGCUGCAGAACGUUCCAUGAUGUCAUCUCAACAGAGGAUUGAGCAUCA", "bound/input enrichment": "0.332 ratio"}
{"Oligonucleotide": "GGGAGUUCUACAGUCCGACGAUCGCUGAAGUACCACACAUUAGAGAAAGUGUAAUGAGACAAGGGCGCCAUCUGUGUUUCCAGUCCGUAAGUCCAACAGGAACAGCUGUUUCAACUCUUAGUUACAUAAGCAGGACAAAUCAGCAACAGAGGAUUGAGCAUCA", "bound/input enrichment": "0.341 ratio"}
{"Oligonucleotide": "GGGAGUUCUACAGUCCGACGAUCUGCAAUUGGGUAGUGGACACUUGUUUACACAAGGGAAGUCGAGAUAACAUGAGUAUUGUACCCGUUUGCUUUUCAAAUGCUCCCAAGGUCUCAGAUGAAGCGGUGAAAAAAGAUUCAGAGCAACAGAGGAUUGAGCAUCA", "bound/input enrichment": "0.103 ratio"}
{"Oligonucleotide": "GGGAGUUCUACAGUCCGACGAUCACAAAGACAGUCAUUAAAGAAGGUGAAGAACAGCUGCAGACUCAGCACCAGAAAACGUUCACCGGGAAAAUUCCAAUUAUGCUGCGCUCCACCUACUGCCUGUUAAAUGGCUUAACAGAUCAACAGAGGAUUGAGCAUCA", "bound/input enrichment": "0.143 ratio"}
{"Oligonucleotide": "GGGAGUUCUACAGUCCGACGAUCUAGUUUGUUGUUUAAAAUAAUGUAAUCAUCAAAAUGAUGCAUAUUGUUACACUACUAUUAACCCGGCUUCAGUAUAUCAGUGUUUAUUUCAUUGUGUUAAAUGUAUACUUGUAAAUAAAACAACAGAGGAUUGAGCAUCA", "bound/input enrichment": "0.204 ratio"}
{"Oligonucleotide": "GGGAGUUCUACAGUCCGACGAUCCUUGAUUUCCUACGAAUCAGUGACACAGAAGAGCUUCCAGAAUUUAAGAGUUUUGAGGAACCCGAACCUCCCAAACAUUCAAAAGUCAAACGGCAAAGCAGCACCCCUAGUGCUCCUGAACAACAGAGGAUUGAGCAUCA", "bound/input enrichment": "0.268 ratio"}
{"Oligonucleotide": "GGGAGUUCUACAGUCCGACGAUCAGUCUUCUAUUUUUAAUAGGAACUUAGAAAAAACUUAGAAUUAUAUAUAGAGUUGUUUCCUUCCGAAACCAGAGCUAUUUAUUUGUAUUUAAAGCACUGUUUAUUAUUUGUACUGAUUCUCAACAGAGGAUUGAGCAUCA", "bound/input enrichment": "55.4 ratio"}
{"Oligonucleotide": "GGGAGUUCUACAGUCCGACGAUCUACCACGAGGGGGGACGCGUCUGGGUUGGCAGACCUUUUGGAUGUAGCCUUGUGGGAACAUUCCGACCCUUUCCUCUGGAAGAGCCACCAUGAAUUCGGUAGCCGGAAAUAAAGAGAGGCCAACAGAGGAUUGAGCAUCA", "bound/input enrichment": "0.14 ratio"}
{"Oligonucleotide": "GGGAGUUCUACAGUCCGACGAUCCGCUAUUGUGUUUCAACAAGAGACUUGCCCUCCCUGUUGUCUUCCACUGUACAUGCUGUAUACCGGGGUCACGUGAUGCCGCUGAAGACAAGAAUAAACUGGAGUAGAUUAGUUUGCUGUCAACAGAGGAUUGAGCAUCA", "bound/input enrichment": "0.198 ratio"}
{"Oligonucleotide": "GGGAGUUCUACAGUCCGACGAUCGACAGGGUCGGGGACAUCCACAUCUUGGAAGUCACGAAUAAUCUAGAACAUAAGACCUCUUUCCGUAUUUCCAAUUUUCUCAACAAGAGCAGGGGGAGUAAUUUCAGUGCAAGUCAGAGCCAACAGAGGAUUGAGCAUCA", "bound/input enrichment": "0.328 ratio"}
{"Oligonucleotide": "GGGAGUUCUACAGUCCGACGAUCUUCUGGUUCAGAUCUGUGCCUUUGGCUGCAACAAGUAUGUUGAUUACUCAAGGAUUAAUCCGUAAAGGAAUACUUUCAAGUCAUCCCAAAUAUGGUUCCAUCCCUAAACUUAUACUUGCUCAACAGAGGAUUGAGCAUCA", "bound/input enrichment": "0.445 ratio"}
{"note": "Some of these lines once more (series 2):"}
{"Oligonucleotide": "AAAGCGGTAATTTGCGTCGTGGGTGCAGATATCTATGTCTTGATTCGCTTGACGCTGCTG", "fluorescence intensity [a.u.]": 73.2}
{"Oligonucleotide": "CGGGGTTAAGTTTGCCGCGTGGGTGGCTTGCAGCAGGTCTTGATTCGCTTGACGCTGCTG", "fluorescence intensity [a.u.]": 74.1}
{"Oligonucleotide": "CTAACGAAGGTTTGCCCAGTGGGTGACAAGCCAAGTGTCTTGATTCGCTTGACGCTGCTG", "fluorescence intensity [a.u.]": 56.4}
{"Oligonucleotide": "CTAACGAAGGTTTTTCACGTGTGGTACAAGCCAAGTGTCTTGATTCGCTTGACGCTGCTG", "fluorescence intensity [a.u.]": 567}
